Published values pooled from the literature.
Numbered parts are unrelated; each lists some results of a single study. Substitutions count along the parent as printed.

Series 1
Target: CCNB2, cyclin fold, Cln2 fusion (human)
Method: yeast growth competition, sequencing
Matrix: yeast
Notes: weak parent motif
Baseline: not given
Direction: higher = stronger binding
Parent: viral docking peptide; KKVKRRLFETREL; partner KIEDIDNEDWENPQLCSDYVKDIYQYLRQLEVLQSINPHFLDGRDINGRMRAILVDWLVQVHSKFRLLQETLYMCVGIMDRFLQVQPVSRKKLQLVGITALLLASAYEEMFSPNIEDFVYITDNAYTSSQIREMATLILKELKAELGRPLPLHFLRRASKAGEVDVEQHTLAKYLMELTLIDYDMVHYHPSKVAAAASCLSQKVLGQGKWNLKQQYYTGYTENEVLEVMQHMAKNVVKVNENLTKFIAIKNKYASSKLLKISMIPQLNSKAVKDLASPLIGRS
Under “normalised enrichment score”, `KKVKRRLLETREL [F8L]` is recorded as 0.85.
`KKVKRRLFETRAL [E12A]`: “normalised enrichment score” 1.06.
Under “normalised enrichment score”, `KKVKKRLLETREL [R5K F8L]` is recorded as 0.714.
For `AKVKRRLFETREL [K1A]`, “normalised enrichment score” read 0.781.
Under “normalised enrichment score”, `KKAKRRLFETREL [V3A]` is recorded as 0.499.
`KKVKRRLFATREL [E9A]` — result for “normalised enrichment score”: 0.401.
`KKVKRRLFEAREL [T10A]`: “normalised enrichment score” 0.281.
Under “normalised enrichment score”, `KKVARRLFETREL [K4A]` is recorded as 0.089.
`KKVKARLFETREL [R5A]`: “normalised enrichment score” 1.02.

Series 2
Target: Prothrombin, mature alpha-thrombin (F2, Homo sapiens, UniProt P00734)
Method: aptamer microarray, sandwich
Form: DNA with 2'F-ANA
Matrix: in vitro
Tested at: 200 nM
Notes: whole 15-mer aptamer, many near background
With: Cy3 exosite-II aptamer, 400 nM
Direction: higher = stronger binding
Sequence: GGTTGGTGTGGTTGG
`2'F-ANA at 4 5 7 9 10 11 15` — result for “mean fluorescence intensity”: 48 a.u.
For `2'F-ANA at 2 3 6 9 10 13 14 15`, “mean fluorescence intensity” read 238 a.u.
For `2'F-ANA at 6 10 11 13 14 15`, “mean fluorescence intensity” read 86.9 a.u.
`2'F-ANA at 1 2 4 5 8 9 13 15`: “mean fluorescence intensity” 115 a.u.
`2'F-ANA at 2 3 5 8 9 11 12 13 14`: “mean fluorescence intensity” 59.5 a.u.
For `2'F-ANA at 4 5 7 9 11 14`, “mean fluorescence intensity” read 68.2 a.u.
`2'F-ANA at 1 3 4 5 7 10 11 12 13` — result for “mean fluorescence intensity”: 47.6 a.u.
For `2'F-ANA at 1 2 3 4 5 7 8 9 10 12 14`, “mean fluorescence intensity” read 48.2 a.u.

Other studies, line by line
P1: PafA, mature enzyme, eGFP fusion (Elizabethkingia meningoseptica, UniProt Q9KJX5); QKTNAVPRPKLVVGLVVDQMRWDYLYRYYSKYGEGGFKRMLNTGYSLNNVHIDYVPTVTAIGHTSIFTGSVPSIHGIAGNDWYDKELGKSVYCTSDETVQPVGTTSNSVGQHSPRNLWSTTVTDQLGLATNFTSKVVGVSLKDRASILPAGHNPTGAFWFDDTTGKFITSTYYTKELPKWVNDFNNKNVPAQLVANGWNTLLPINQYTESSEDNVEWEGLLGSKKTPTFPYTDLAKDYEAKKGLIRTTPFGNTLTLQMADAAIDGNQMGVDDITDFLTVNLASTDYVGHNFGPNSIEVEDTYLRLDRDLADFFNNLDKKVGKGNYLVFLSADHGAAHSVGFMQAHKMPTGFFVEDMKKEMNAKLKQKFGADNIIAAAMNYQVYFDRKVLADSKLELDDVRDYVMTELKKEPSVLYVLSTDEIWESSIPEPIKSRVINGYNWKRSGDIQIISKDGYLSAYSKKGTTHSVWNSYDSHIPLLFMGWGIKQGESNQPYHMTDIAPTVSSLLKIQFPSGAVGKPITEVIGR
With N.N.[Cl][Pt][Cl] the effect was -3.87% (dsDNA unwinding, PicoGreen fluorescence; annealed dsDNA substrate; 20 µM).
`P1 D275G` — result for “phosphate dissociation constant”: 493 µM (inorganic phosphate, free oxyanion; microfluidic competitive inhibition; in vitro, cell-free expressed; not given, derived from inhibition constants, unchanged parent 615000 nM; lower = stronger binding).
